Assay results pooled from the literature.
Organism: Trypanosoma cruzi

SMILES | test | test system | setting | how to read | quantity | value
Cc1nc([N+](=O)[O-])cn1CC(O)CF (stereo not shown) | parasite growth | – | 24 h, trypomastigote | – | IC50 | 1150 µM
C=C1C(=O)OC2CC(C)C3C=CC(=O)C3(C)C(O[Si](C)(C)C(C)C)C12 (stereo not shown) | – | epimastigote | – | relative to: CC50 splenocytes over IC50 epimastigotes | selectivity index | 2.2
CCCC[C@@H](O)C[C@@H](C)C[C@H](NC(=O)[C@@H]1C[C@H](C)CN1C(=O)/C=C/[C@@H](C)CC)C(=O)N[C@H](C(=O)NC(C)(C)C(=O)N[C@@H](CC(C)C)C(=O)N[C@@H](CC(C)C)C(=O)NC(C)(C)C(=O)NC(C)(C)C(=O)NCCC(=O)N[C@@H](C)CNC)[C@H](O)C(C)C | – | C2C12, CA-I/72 | – | relative to: CC50 C2C12 over EC50 amastigotes | selectivity index | > 410
N=C(N)NCCC[C@H](NC(=O)[C@H](CCCNC(=N)N)NC(=O)[C@H](CCCNC(=N)N)NC(=O)[C@H](CCC(N)=O)NC(=O)[C@H](CCCNC(=N)N)NC(=O)[C@H](CCCNC(=N)N)NC(=O)[C@H](CCCCN)NC(=O)[C@H](CCCCN)NC(=O)[C@H](CCCNC(=N)N)NC(=O)CNC(=O)[C@H](Cc1ccc(O)cc1)NC(=O)CNC(=O)CNC(=O)[C@@H]1CCCCNC(=O)CCC(=O)N[C@@H](CCCNC(=N)N)C(=O)N[C@@H](CC(N)=O)C(=O)NCC(=O)N[C@@H](CCC(N)=O)C(=O)N[C@@H](CS)C(=O)N[C@@H](CCC(N)=O)C(=O)N[C@@H](CCCNC(=N)N)C(=O)N[C@@H](CCCCN)C(=O)N1)C(N)=O | parasite growth | – | 24 h, epimastigote | – | IC50 | ~3 µM
CC(C)OC(=O)Nc1cnc2nc(-c3cc(NC(=O)c4ccco4)ccc3Cl)[nH]c2c1 | – | epimastigotes | 0.2% DMSO | – | EC20 | 1.5 µM
C=C1C(=O)OC2CC(C)C3C=CC(=O)C3(C)C(OC(C)=O)C12 (stereo not shown) | – | epimastigote | – | relative to: CC50 splenocytes over IC50 epimastigotes | selectivity index | 2
CCC(=O)C[C@@H](O)C[C@@H](C)C[C@H](NC(=O)[C@@H]1C[C@H](C)CN1C(=O)/C=C/[C@@H](C)CC)C(=O)N[C@H](C(=O)NC(C)(C)C(=O)N[C@@H](CC(C)C)C(=O)N[C@@H](CC(C)C)C(=O)NC(C)(C)C(=O)NC(C)(C)C(=O)NCCC(=O)N[C@@H](C)CNC)[C@H](O)C(C)C | – | C2C12, CA-I/72 | – | relative to: CC50 C2C12 over EC50 amastigotes | selectivity index | > 120
O=c1c2ccccc2[se]n1-c1ccccc1 | – | U-2 OS host cells, Y | 72 h, intracellular amastigotes, with: FBS 10% | – | EC50 | 3 µM
C=C1C(=O)O[C@@H]2C[C@H](C)[C@@H]3C[C@H](O[Si](c4ccccc4)(c4ccccc4)C(C)(C)C)[C@H](O)[C@@]3(C)C[C@H]12 | – | epimastigote | – | relative to: CC50 splenocytes over IC50 epimastigotes | selectivity index | 3
Cc1nc(C)c(C(=O)Nc2ccc(F)c(-c3nc4ncc(-c5ccccn5)cn4n3)c2)o1 | – | PSMB4 F24L overexpression, epimastigotes | – | relative to: PSMB4 F24L over wild type | potency shift | > 10 fold
Cc1ncnc2c1c(C(F)(F)F)cn2[C@@H]1O[C@H](CO)[C@@H](O)[C@H]1O | CPRG readout | MRC-5 SV2, Tulahuen CL2 β-galactosidase | 7 days, intracellular amastigotes | – | EC50 | 5.06 µM
C=C1C(=O)OC2CC(C)C3C=CC(=O)C3(C)C(O[Si](C)(C)C)C12 (stereo not shown) | – | epimastigote | – | relative to: CC50 splenocytes over IC50 epimastigotes | selectivity index | 0.4
CCCC[C@@H](O)C[C@@H](C)C[C@H](NC(=O)[C@@H]1C[C@H](C)CN1C(=O)/C=C/[C@@H](C)CC)C(=O)N[C@H](C(=O)NC(C)(C)C(=O)N[C@@H](CC(C)C)C(=O)N[C@@H](CC(C)C)C(=O)NC(C)(C)C(=O)NC(C)(C)C(=O)NCCC(=O)N[C@@H](C)CN(C)C)[C@H](O)C(C)C | – | C2C12, CA-I/72 | – | relative to: CC50 C2C12 over EC50 amastigotes | selectivity index | > 530

A few entries again:
SMILES | test | test system | setting | how to read | quantity | value
Cc1ncnc2c1c(C(F)(F)F)cn2[C@@H]1O[C@H](CO)[C@@H](O)[C@H]1O | CPRG readout | MRC-5 SV2, Tulahuen CL2 β-galactosidase | 7 days, intracellular amastigotes | – | EC50 | 5.06 µM
C=C1C(=O)OC2CC(C)C3C=CC(=O)C3(C)C(O[Si](C)(C)C)C12 (stereo not shown) | – | epimastigote | – | relative to: CC50 splenocytes over IC50 epimastigotes | selectivity index | 0.4
